# Measured values pooled from the literature.
# ± gives the spread as reported.
Compound,assay,system,conditions,scale,endpoint,value
CC(NC(=O)OC1OC(C(=O)O)C(O)C(O)C1O)c1cc(Cl)ccc1Cn1c(=S)[nH]c(=O)c2[nH]ccc21 (centres unmarked),,"Sprague-Dawley rat, male, plasma","oral, 125 mg/kg/day",relative to: rat over human 10 mg,exposure ratio,2.6
OC[C@H]1c2[nH]cnc2[C@H](O)[C@@H](O)[C@@H]1O,,,,,pKa of conjugate acid,6
NS(=O)(=O)c1ccc(N2N=C(C(F)(F)F)CC2c2ccc(F)cc2F)cc1 (centres unmarked),,"Beagle dog, both sexes, plasma","oral, 4 mg/kg, single dose",,AUC(0-24h),12300 ± 4330 ng·h/mL
CCC(=O)N[C@@H](C)C(=O)OCC(=O)N[C@@H](C)C(=O)O,,water,"pH 3, 65 °C",,depolymerization half-life,90.6 h
CC(C)[C@H](NC(=O)[C@@H]1CCCN1C(=O)[C@H](CCCNC(=N)N)NC(=O)[C@H](CS)NC(=O)[C@H](Cc1c[nH]c2ccccc12)NC(=O)[C@H](CCCNC(=N)N)NC(=O)[C@@H](Cc1ccccc1)NC(=O)[C@H](Cc1c[nH]cn1)NC(=O)[C@H](CCC(=O)O)NC(=O)[C@H](CS)NC(=O)[C@H](CS)NC(=O)[C@@H]1CC(=O)N[C@@H](CCCNC(=N)N)C(=O)NCC(=O)N[C@@H](CC(=O)O)C(=O)N[C@H](Cc2ccc(O)cc2)C(=O)N1)C(N)=O [technetium-99m labelled],,"C57 mice B16/F1 melanoma female, urine","iv, 0.037 MBq, 24 h",,excretion,90.2 ± 3.25%
"CNC(=O)N[C@]1(C)CCC[C@@]2(C)C3CC[C@@]4(C)C[C@]3(CCC21)CC4=O (single isomer, unassigned)",,processed rat plasma,"400 ng/mL, 24 h, room temperature, autosampler stability",relative to: nominal concentration,relative error,11.4%
CN1CCC(N[C@@H]2CCc3[nH]c4c(C(N)=O)ccc(-c5ccccc5Cl)c4c3C2)CC1,,BALB/c mice,"iv, 2 mg/kg",,AUC(0-t),246 ng·h/mL
[11CH3]N1CCN(CCCOc2ccc(=O)n(-c3ccc(Cl)c(Cl)c3)n2)CC1,radiotracer,"mouse BALB/c male, liver","intravenous, 30 min",,maximum uptake,14.7 ± 2.03 %ID/cc
COCC1CN(C2CCN(c3cc(OC)c(Nc4ncc(Br)c(Nc5ccc6c(c5P(C)(C)=O)OCCO6)n4)cc3C)CC2)C1,,human,"oral, dose not given, sample A patients, any grade",,patients with vomiting,37%
Cn1c(=O)oc2ccc(-c3ccc(CC(C#N)NC(=O)C4CNCCCO4)c(F)c3)cc21 (centres unmarked),item: alanine aminotransferase increased,human volunteers,"oral, dose not given",,treatment-emergent adverse event incidence,11.1%
CCCCC/C=C/C=C/C(=O)NCC(C)C,,rat plasma,"250 ng/mL, 30 d, -80 °C, long-term storage medium QC",relative to: nominal concentration,relative error,0.67%
Cc1cc(O)cc(O)c1C(=O)c1c2c3c(c(O)cc(C)c3oc1=O)C(=O)c1c(O)cc(O)cc1-2,,"KM mouse male, plasma","intraperitoneal, 30 mg/kg",,CL/F,12 mL/min/kg
O=C(CCc1ccc(CNC(C(=O)OC2CCCC2)C2CCCCC2)cn1)NO (centres unmarked),,human,"40 mg once daily, day 7, geometric mean",,CL/F,159 L/h
CC(=O)N[C@H](CC(=O)O)C(=O)N[C@H](Cc1c[nH]c2ccccc12)C(=O)N[C@H](Cc1ccccc1)C(=O)N[C@H](CCCCN)C(=O)N[C@H](C)C(=O)N[C@H](Cc1ccccc1)C(=O)N[C@H](Cc1ccc(O)cc1)C(=O)N[C@H](CC(=O)O)C(=O)N[C@H](CCCCN)C(=O)N[C@@H](C(=O)N[C@H](C)C(=O)N[C@H](CCC(=O)O)C(=O)N[C@H](CCCCN)C(=O)N[C@H](Cc1ccccc1)C(=O)N[C@H](CCCCN)C(=O)N[C@H](CCC(=O)O)C(=O)N[C@H](C)C(=O)N[C@H](Cc1ccccc1)C(N)=O)C(C)C,,"statin-treated high-risk CHD women, plasma","oral, 100 mg daily, day 1, 0 to 2 h, mean, undetectable set to 0",,AUC(0-t),6.42 ng·h/mL
CCOc1ccc2c(c1)C(C)=CC(C)(C)N2c1cc(OCC)cc2c1NC(C)(C)C=C2C,LC-MS/MS,"laying hens, kidney","oral in feed, 50 mg/kg feed ethoxyquin, 56 days",,tissue residue,2.7 ± 1.3 ng/g
COc1cc2c(cc1OC)CN(CCCCn1ccc3cc(OCC[18F])ccc31)C2,,"male CD-1 mouse, kidney","intravenous, 2 min",,tracer uptake,19 %ID/g
CC(O)c1cc(Cl)ccc1Cn1c(=S)[nH]c(=O)c2[nH]ccc21 (centres unmarked),,"Sprague-Dawley rat, both sexes, plasma","oral, 125 mg/kg/day",relative to: rat over human clinical doses,exposure ratio,≥ 1.6
[11CH3]c1ccc2nc(C3CCC3)n(-c3ccc4[nH]ncc4c3)c2n1,extrapolated from mouse,"standard human, stomach wall",,,absorbed dose,5.8 µSv/MBq
C#CCOc1ccc(/C=C2\SC(=O)N(CC(=O)NCc3ccccc3)C2=O)cc1,,neat PEG 400,298.15 K,,standard Gibbs energy of solution,3.48 kcal/mol
COC(=O)c1ccc(-c2cn(Cc3cc(Cl)ccc3O[11CH3])nn2)cc1,,"C57BL/6 mouse, blood","dose not given, 60 min",,radioactivity,2.07 %ID/cc
CC(=O)N[C@H](CSSC[C@H](N)C(=O)O)C(=O)N[C@H](C)C(=O)N[C@H](CCCNC(=N)N)C(=O)N[C@H](CCCNC(=N)N)C(=O)N[C@H](CCCNC(=N)N)C(=O)N[C@H](C)C(=O)N[C@H](CCCNC(=N)N)C(N)=O,,"male human, plasma","intravenous, 10 mg, single dose, healthy volunteers",,Cmax,567 ng/mL
C=Cc1ccc([C@H]2C[C@@]3(C)[C@@H](CC[C@@]3(O)C(F)(F)C(F)(F)F)[C@@H]3CCC4=CC(=O)CCC4=C32)cc1,,human liver microsomes,100 % absorption assumed,,maximal oral bioavailability,31%
CC(C)[C@H](NC(=O)CNC(=O)[C@H](CCC(N)=O)NC(=O)[C@H](C)N)C(=O)O,LC-MS/MS,"human, plasma","intravenous, 10 mg/kg three times daily, day 2, first dose, 10 min infusion, geometric mean",,AUC(0-inf),242 ng·h/mL
"CC1=C(C2=C(C)C(=O)c3c(cc(O)c(O)c3Cc3ccccc3)C2=O)C(=O)c2cc(O)c(O)c(Cc3ccccc3)c2C1=O (single isomer, unassigned)",,solid,"100 days, room temperature",,degraded compound,5 ± 0.5%
CC(=O)N([O-])CCCCCNC(=O)CCC(=O)N([O-])CCCCCNC(=O)CCC(=O)N([O-])CCCCCN.[89Zr+4],radio-iTLC,aqueous buffer,"3 h, pH 7.0, 37 °C, EDTA challenge, added: 100-fold excess EDTA",,intact complex,95.5 ± 0.7%
CN1CCC[C@]1(C)/C=C/S(=O)(=O)NC(=O)Nc1c2c(cc3c1CCC3)CCC2,,"human, plasma","oral, 400 mg single dose",,CL/F,1.2 L/h
C#CCNC(=O)C(CC(C)(C)F)NC(c1ccc(-c2ccc(S(C)(=O)=O)cc2)cc1)C(F)(F)F (centres unmarked),LC-MS UV trace,aqueous buffer,"concentration not given, 23 h, pH 8.0, 37 °C, added: cysteine 10 mM",,cysteine adduct formation,< 1%
CCCC[C@H](NC(=O)CNC(=O)CNC(=O)CN1CCN(CC(=O)O)CCN(CC(=O)O)CCN(CC(=O)O)CC1)C(=O)N[C@H]1CC(=O)NCCCC[C@@H](C(N)=O)NC(=O)[C@H](Cc2c[nH]c3ccccc23)NC(=O)[C@H](CCCNC(=N)N)NC(=O)[C@@H](Cc2ccccc2)NC(=O)[C@H](Cc2c[nH]cn2)NC1=O [copper-64 labelled],,"C57 mouse female B16/F1 melanoma, urine","intravenous, 0.037 MBq, 0.5 h",,urinary excretion,46 ± 4.07%
CC(C)c1cnc(-c2cc(Cl)ccc2F)cc1Nc1ccncc1C(=O)NC(CO)CO,"monotherapy, item: myalgia",human patients,"oral, dose not given, grade 5, phase I A",,patients with treatment-related adverse event,0%
CC(C)(O)c1ncc([S@](N)(=O)=NC(=O)Nc2c3c(cc4c2CCC4)CCC3)s1,,"healthy human volunteers, plasma","oral, 100 mg once daily, day 14, spray-dried dispersion",,Tmax,3 h
N=C(N)NCCC[C@@H]1NC(=O)[C@H](Cc2c[nH]c3ccccc23)NC(=O)[C@@H](CC2CCCCC2)NC(=O)[C@@H]2CCCN2C(=O)[C@@H](NC(=O)CCc2ccccc2)CCCNC1=O,,"C57BL/6J mouse, spinal cord","intraperitoneal, 1 mg/kg, single dose, two-compartment model",,distribution rate constant (K12),2.75 h⁻¹
CCCC[C@H](NC(=O)CNC(=O)CNC(=O)CN1CCN(CC(=O)O)CCN(CC(=O)O)CCN(CC(=O)O)CC1)C(=O)N[C@H]1CC(=O)NCCCC[C@@H](C(N)=O)NC(=O)[C@H](Cc2c[nH]c3ccccc23)NC(=O)[C@H](CCCNC(=N)N)NC(=O)[C@@H](Cc2ccccc2)NC(=O)[C@H](Cc2c[nH]cn2)NC1=O [indium-111 labelled],,"C57 mouse, female, B16/F1 melanoma, urine","intravenous, 0.037 MBq, 24 h",,urinary excretion,93.2 ± 1.6%
COc1ccc(N2CCOCC2)c2sc(NC(=O)c3ccnc(CN4CCCC4)c3)nc12,photometric titration,,,,pKa (acidic),7.2
Cc1ccc(OCC(=O)N(Cc2cccs2)c2ccn[nH]2)cc1,,"beagle dog, male, plasma","oral gavage, 10 mg/kg",,half-life,1.92 h
NC[C@@H](C(=O)Nc1ccc(-c2cn[nH]c2)cc1)c1ccccc1,,"New Zealand White rabbits, plasma","topical, 0.1 % one drop",,unbound plasma concentration,0.29 ng/mL
O=C([O-])CN1CCN(CC(=O)[O-])CCN(CC(=O)NC[C@H]2CC[C@H](C(=O)N[C@H](Cc3cnc4ccccc4c3)C(=O)NCCCC[C@H](NC(=O)N[C@@H](CCC(=O)O)C(=O)O)C(=O)O)CC2)CCN(CC(=O)[O-])CC1.[64Cu+2],PET/CT dosimetry OLINDA/EXM,"healthy volunteers, adrenals",up to 24 h post-injection,,absorbed dose,0.0391 mGy/MBq
Cc1ccc(-c2ccc(-c3cc4sccc4o3)cn2)nc1,,benzene,added: quinine bisulfate reference,,fluorescence quantum yield,0.59
CC1(C)C(=CC=C(C=CC2=[N+](CCC[N+](C)(C)C)c3ccc(S(=O)(=O)[O-])cc3C2(C)C)CCC(=O)[O-])N(CCC[N+](C)(C)C)c2ccc(S(=O)(=O)[O-])cc21,,100% serum,pH 7.4,,extinction coefficient,272000 M⁻¹ cm⁻¹
CCCC[C@H](NC(C)=O)C(=O)N[C@H]1CC(=O)NCCCC[C@@H](C(=O)N[C@@H](C(=O)N2CCC[C@@H]2C(N)=O)C(C)C)NC(=O)[C@H](Cc2c[nH]c3ccccc23)NC(=O)[C@H](CCCN=C(N)N)NC(=O)[C@@H](Cc2ccc3ccccc3c2)NC(=O)[C@@H]2CCCN2C1=O,,dog,"dose not given, day 1, start of treatment",,mean corpuscular haemoglobin concentration,34 g/dL
CCCC[C@@H]1NC(=O)[C@@H](NC(=O)[C@H](CCC(=O)O)NC(=O)CNC(=O)CN2CCN(CC(=O)O)CCN(CC(=O)O)CCN(CC(=O)O)CC2)CCCCNC(=O)C[C@@H](C(N)=O)NC(=O)[C@H](C(C)C)NC(=O)[C@@H]2CCCN2C(=O)[C@H](CCCNC(=N)N)NC(=O)CNC(=O)[C@H](Cc2c[nH]c3ccccc23)NC(=O)[C@H](CCCNC(=N)N)NC(=O)[C@@H](Cc2ccccc2)NC(=O)[C@H](Cc2c[nH]cn2)NC(=O)[C@H](CCC(=O)O)NC1=O [gallium-67 labelled],,C57 mice with B16/F1 melanoma,"intravenous, 0.037 MBq/mouse, 2 h",relative to: tumour over lung,tumour to lung ratio,646
CC[C@H](C)[C@H](NC(=O)[C@H](C)NC(=O)CNC(=O)[C@H](Cc1ccccc1)NC(=O)[C@H](CC(N)=O)NC(=O)[C@H](CC(N)=O)NC(=O)[C@H](CO)NC(=O)[C@H](CO)NC(=O)[C@H](Cc1c[nH]cn1)NC(=O)[C@@H](NC(=O)[C@H](CC(C)C)NC(=O)[C@H](Cc1ccccc1)NC(=O)[C@H](CC(N)=O)NC(=O)[C@H](C)NC(=O)[C@H](CC(C)C)NC(=O)[C@H](CCCNC(=N)N)NC(=O)[C@H](CCC(N)=O)NC(=O)[C@@H](NC(=O)[C@H](C)NC(=O)[C@@H]1CSSC[C@H](NC(=O)[C@@H](N)CCCCN)C(=O)N[C@@H](CC(N)=O)C(=O)N[C@@H]([C@@H](C)O)C(=O)N[C@@H](C)C(=O)N[C@@H]([C@@H](C)O)C(=O)N1)[C@@H](C)O)C(C)C)C(=O)N[C@@H](CC(C)C)C(=O)N1CCC[C@H]1C(=O)N1CCC[C@H]1C(=O)N[C@H](C(=O)N[C@@H](CC(N)=O)C(=O)N[C@H](C(=O)NCC(=O)N[C@@H](CO)C(=O)N[C@@H](CC(N)=O)C(=O)N[C@H](C(=O)N[C@@H](Cc1ccc(O)cc1)C(N)=O)[C@@H](C)O)C(C)C)[C@@H](C)O,ion mobility mass spectrometry,nitrogen drift gas,dimer ion charge +4,,collision cross section,885.2 ± 4.6 Å²

# Some of these lines once more:
Compound,assay,system,conditions,scale,endpoint,value
C=Cc1ccc([C@H]2C[C@@]3(C)[C@@H](CC[C@@]3(O)C(F)(F)C(F)(F)F)[C@@H]3CCC4=CC(=O)CCC4=C32)cc1,,human liver microsomes,100 % absorption assumed,,maximal oral bioavailability,31%
C#CCNC(=O)C(CC(C)(C)F)NC(c1ccc(-c2ccc(S(C)(=O)=O)cc2)cc1)C(F)(F)F (centres unmarked),LC-MS UV trace,aqueous buffer,"concentration not given, 23 h, pH 8.0, 37 °C, added: cysteine 10 mM",,cysteine adduct formation,< 1%
CC(=O)N([O-])CCCCCNC(=O)CCC(=O)N([O-])CCCCCNC(=O)CCC(=O)N([O-])CCCCCN.[89Zr+4],radio-iTLC,aqueous buffer,"3 h, pH 7.0, 37 °C, EDTA challenge, added: 100-fold excess EDTA",,intact complex,95.5 ± 0.7%
CCCC[C@H](NC(=O)CNC(=O)CNC(=O)CN1CCN(CC(=O)O)CCN(CC(=O)O)CCN(CC(=O)O)CC1)C(=O)N[C@H]1CC(=O)NCCCC[C@@H](C(N)=O)NC(=O)[C@H](Cc2c[nH]c3ccccc23)NC(=O)[C@H](CCCNC(=N)N)NC(=O)[C@@H](Cc2ccccc2)NC(=O)[C@H](Cc2c[nH]cn2)NC1=O [copper-64 labelled],,"C57 mouse female B16/F1 melanoma, urine","intravenous, 0.037 MBq, 0.5 h",,urinary excretion,46 ± 4.07%
